Assay results pooled from the literature.
Lines come from different studies, so protocols differ.
PIK3CA H1047L: Phosphatidylinositol 4,5-bisphosphate 3-kinase catalytic subunit alpha isoform (PIK3CA, Homo sapiens, UniProt P42336, H1047L)
PIK3CA C420R: Phosphatidylinositol 4,5-bisphosphate 3-kinase catalytic subunit alpha isoform (PIK3CA, Homo sapiens, UniProt P42336, C420R)

SMILES | target | assay | setting | how to read | remaining binding [%]
COc1c(Cl)cccc1Nc1c(-c2ccncc2C#C[C@@]2(C)CCCN2C(=O)/C=C/CN(C)C)[nH]c2c1C(=O)NCC2 | PIK3CA (Homo sapiens, UniProt P42336, I800L) | binding, competition with immobilised ligand | 3 µM |  | 100
C=CC(=O)N1CCc2ccc(-n3c(=O)ccc4cnc5ccc(-c6cnn(C)c6)cc5c43)cc21 | PIK3CA (Homo sapiens, UniProt P42336, H1047Y) | KINOMEscan | 1 µM | relative to: DMSO control | 42
CC(=O)c1cnc(N)nc1N1CC[C@H]1c1nn2ccc(Cl)c2c(=O)n1-c1ccccc1 | PIK3CA H1047L | binding, competition with immobilised ligand | 10 µM |  | 71
CNC(=O)C1CCN(c2cc(C)c(F)cc2NC(=O)c2ccc(-c3cc(O)ccc3C)c(C)c2)CC1 | PIK3CA C420R | binding, competition with immobilised ligand | 1 µM |  | 89
Cc1cnc2nc1Nc1cccc(c1)COC/C=C/COCc1cc(ccc1OCCN1CCOCC1)N2 | PIK3CA C420R | binding | 0.1 µM |  | 83
C=CC(=O)N1CCCC(n2c(=O)c3ncccc3n(Cc3ccc(Oc4ccccc4)cc3)c2=O)C1 (centres unmarked) | PIK3CA H1047L | cell-free assay, competition with immobilised ligand | 1 µM |  | 56
CCN1CCN(Cc2ccc(C(=O)Nc3ccc(C)c(NCc4cnc5[nH]ccc5c4OC)c3)cc2C(F)(F)F)CC1 | PIK3CA H1047L | binding, competition with immobilised ligand | 1 µM |  | 76
Cc1ccc(-c2c(/C=C(\C#N)C(=O)NC(C)C)n(CCCO)c3ncnc(N)c23)cc1 | PIK3CA (Homo sapiens, UniProt P42336, E545A) | cell-free assay, competition with immobilised ligand | 1 µM |  | 100
CC(C)=CC1OC(C)(C)C2C=C3C(=O)C(Cl)=CC(O)C3C3C(O)C4OC4C(=O)C132 (centres unmarked) | PIK3CA (Homo sapiens, UniProt P42336, E542K) | cell-free assay, competition with immobilised ligand | 10 µM |  | 63
CNC1C[S+]2CC[S+]3CC[S+](C1)[Ru-4]321([N]=C=S)[n]2c3ccc(OC)cc3c3c4c(c5cc(F)c[n+]1c5c32)C(=O)NC4=O (centres unmarked) | PIK3CA (Homo sapiens, UniProt P42336) | KinomeScan | 0.1 µM | relative to: untreated | 100
Nc1ncc2c(n1)-c1c([nH]c3ccc(C4=CCOCC4)cc13)CCC2 | PIK3CA C420R | binding, competition with immobilised ligand | 1 µM |  | 82
